Results collected from several papers.
Protocols differ between the studies behind these lines.
RET: Proto-oncogene tyrosine-protein kinase receptor Ret (RET, Homo sapiens, UniProt P07949)
UniProt P07949, sequence (whole entry, unmodified, looked up): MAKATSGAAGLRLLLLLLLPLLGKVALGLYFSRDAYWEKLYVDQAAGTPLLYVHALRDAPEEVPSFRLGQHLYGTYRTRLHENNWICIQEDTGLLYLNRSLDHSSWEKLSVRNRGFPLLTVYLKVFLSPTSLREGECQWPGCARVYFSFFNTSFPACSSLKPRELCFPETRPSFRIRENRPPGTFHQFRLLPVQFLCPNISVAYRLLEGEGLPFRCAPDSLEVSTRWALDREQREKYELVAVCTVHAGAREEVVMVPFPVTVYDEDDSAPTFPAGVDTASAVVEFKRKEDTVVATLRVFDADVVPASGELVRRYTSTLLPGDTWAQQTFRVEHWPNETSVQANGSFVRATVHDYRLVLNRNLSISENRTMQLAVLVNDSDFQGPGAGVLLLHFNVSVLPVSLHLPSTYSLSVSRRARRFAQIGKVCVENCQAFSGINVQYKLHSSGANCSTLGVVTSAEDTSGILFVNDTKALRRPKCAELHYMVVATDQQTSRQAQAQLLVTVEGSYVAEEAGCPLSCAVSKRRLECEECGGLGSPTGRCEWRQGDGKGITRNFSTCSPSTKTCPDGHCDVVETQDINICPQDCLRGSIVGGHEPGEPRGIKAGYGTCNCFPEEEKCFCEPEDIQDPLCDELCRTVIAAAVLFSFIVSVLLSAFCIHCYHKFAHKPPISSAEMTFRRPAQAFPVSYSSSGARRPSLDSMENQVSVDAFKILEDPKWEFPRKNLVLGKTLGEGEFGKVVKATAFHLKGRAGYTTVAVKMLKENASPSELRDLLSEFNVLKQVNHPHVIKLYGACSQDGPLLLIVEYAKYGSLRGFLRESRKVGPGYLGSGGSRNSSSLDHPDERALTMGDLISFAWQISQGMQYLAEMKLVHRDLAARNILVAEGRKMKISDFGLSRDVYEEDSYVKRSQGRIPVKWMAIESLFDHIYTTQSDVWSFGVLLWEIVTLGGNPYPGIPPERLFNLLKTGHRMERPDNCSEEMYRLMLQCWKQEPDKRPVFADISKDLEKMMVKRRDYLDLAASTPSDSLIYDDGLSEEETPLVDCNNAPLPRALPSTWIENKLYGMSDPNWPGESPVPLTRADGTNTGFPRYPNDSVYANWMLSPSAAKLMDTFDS
RET M918T: Proto-oncogene tyrosine-protein kinase receptor Ret (RET, Homo sapiens, UniProt P07949, M918T)

Cc1ccc(-c2nn3c(=O)cc(CNC(=O)Nc4ccc(C)c(Cl)c4)nc3s2)cc1
remaining activity (RET; enzyme activity, inhibitor, radiometric; 10 µM): 105%

COc1cc(-c2cncc3c2CN(C)Cc2cc(N4CCNCC4)ccc2-3)cc(OC)c1OC
remaining activity (RET (Homo sapiens, UniProt P07949, V804M); enzyme activity, inhibitor; 1 µM): 102%

C1=C/COCc2cc(ccc2OCCN2CCCC2)Nc2nccc(n2)-c2cccc(c2)COC/1
remaining binding (RET (Homo sapiens, UniProt P07949, V804L); binding; 0.1 µM): 83%

CNc1ncc2c(/C=C/C(=O)N3CCC(OC)CC3)nn(Cc3cccc(C(F)(F)F)c3)c2n1
remaining activity (RET; enzyme activity, inhibitor, radiometric; 1 µM): 87%

Cc1ccc(NC(=O)Nc2cc3c(cc2Oc2ccccc2)n(C)c(=O)n3C)cc1C
remaining activity (RET; enzyme activity, inhibitor, radiometric; 0.1 µM): 112%

C=CC(=O)N1CCC(COCC(=O)N2CCN(c3nc(-c4cnc(N)nc4C(F)F)nc(N4CCOC[C@@H]4C)n3)CC2)CC1
remaining binding (RET M918T; binding, competition with immobilised ligand; 1 µM): 79%

COc1cc(NC(=O)Nc2ccccc2Br)cc2sc(NC(=O)c3ccccc3)nc12
remaining activity (RET; enzyme activity, inhibitor, radiometric; 10 µM): 93.4%

CCCCC(=O)Nc1ccc(-c2ccc3ncn(CCC)c(=O)c3c2)cn1
remaining binding (RET M918T; binding, competition with immobilised ligand; 0.5 µM): 100%

Cc1cc([C@@H](C)Nc2ccccc2C(=O)O)c2nc(N3CCC(F)(F)CC3)c(C#N)c(=O)n2c1
remaining binding (RET; binding, competition with immobilised ligand; 1 µM): 94%

Repeated from above:
CNc1ncc2c(/C=C/C(=O)N3CCC(OC)CC3)nn(Cc3cccc(C(F)(F)F)c3)c2n1
remaining activity (RET; enzyme activity, inhibitor, radiometric; 1 µM): 87%
